Measured values gathered from unrelated publications.
A part holds a random share of what one study measured. Positions count from the first letter of the parent shown.

Study 1 — technique: DHFR PCA, deep sequencing; matrix: yeast; together with: (+)-ABA 2500 µM; relative to: wild-type fitted maximum; reading: higher = stronger binding
Target: ABI1, truncated, D143A, DHFR fusion (Arabidopsis thaliana)
Setting: methotrexate growth selection, single substitutions
Starting sequence: PYL1, truncated, DHFR fusion (Arabidopsis thaliana); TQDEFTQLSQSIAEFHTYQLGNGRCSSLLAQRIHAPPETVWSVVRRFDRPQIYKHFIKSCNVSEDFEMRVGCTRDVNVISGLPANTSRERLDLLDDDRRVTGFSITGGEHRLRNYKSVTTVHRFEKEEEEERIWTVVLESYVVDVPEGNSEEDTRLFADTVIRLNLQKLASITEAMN; partner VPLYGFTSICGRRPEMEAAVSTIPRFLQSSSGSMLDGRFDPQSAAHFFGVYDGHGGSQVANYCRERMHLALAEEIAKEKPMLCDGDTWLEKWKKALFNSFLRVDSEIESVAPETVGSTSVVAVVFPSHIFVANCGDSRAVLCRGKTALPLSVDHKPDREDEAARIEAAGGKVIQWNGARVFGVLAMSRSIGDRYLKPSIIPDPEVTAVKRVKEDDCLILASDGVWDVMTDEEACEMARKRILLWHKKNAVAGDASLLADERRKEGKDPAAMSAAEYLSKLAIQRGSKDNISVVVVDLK
| Variant | relative binding score [%] |
| --- | --- |
| A158L | 99.2 |
| G23S | 100 |
| V136T | 99 |
| V145W | 70.1 |
| S117A | 105 |
| L112S | 9.36 |
| V40D | 2.5 |
| I172E | 87.2 |

Study 2 — target: CREB5, bZIP domain (human); technique: DHFR protein complementation; matrix: yeast; relative to: wild-type JUN-FOS pair; reading: higher = stronger binding
Setting: single substitutions, most at no-binding floor
Starting sequence: JUN, bZIP domain (human); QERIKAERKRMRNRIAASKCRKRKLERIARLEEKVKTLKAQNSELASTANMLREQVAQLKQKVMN; partner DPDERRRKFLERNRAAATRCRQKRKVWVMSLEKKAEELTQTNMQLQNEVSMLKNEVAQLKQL
| Variant | binding fitness |
| --- | --- |
| M51T | -0.228 natural log |
| E32P | -1.28 natural log |
| A57G | -0.478 natural log |
| Q41I | -0.408 natural log |
| K39M | -0.326 natural log |
| M51N | -0.253 natural log |
| E54A | -0.424 natural log |
| A49E | -1.25 natural log |

Further values, each from its own experiment
| Substance | target or system | assay | system | setting | measurement | value |
| --- | --- | --- | --- | --- | --- | --- |
| WDR36 (Homo sapiens, UniProt Q8NI36) | UTP18 (Homo sapiens, UniProt Q9Y5J1) | cross-linking MS | cell fractions | together with: DSSO | cross-linked residues | K179 to K172 |
| CCn1cc(S(=O)(=O)N2CCc3n[nH]c(=O)n3CC2)cn1 |  |  | mouse, microsomes or S9 | 2 µM, 0.5 h | remaining compound | 36.7% |
| MCM3 (Homo sapiens, UniProt P25205) | MCM7 (Homo sapiens, UniProt P33993) | cross-linking MS | cell fractions | together with: DMTMM | cross-linked residues | K152 to D5 |
| CALR (Homo sapiens, UniProt P27797) | ZKSCAN2 (Homo sapiens, UniProt Q63HK3) | cross-linking MS | cell fractions | together with: DSSO | cross-linked residues | K55 to K323 |
| CCT8 (Homo sapiens, UniProt P50990) | CNTNAP4 (Homo sapiens, UniProt Q9C0A0) | cross-linking MS | cell fractions | together with: DSSO | cross-linked residues | Y468 to K165 |

A few entries again (study 2):
| Variant | binding fitness |
| --- | --- |
| E54A | -0.424 natural log |
